Earlier results as cited in several papers.
Protocols differ between the studies behind these lines. In brackets after ≈: the same amount, converted by molar mass.
Chain of UniProt Q8NE63 (whole entry, looked up): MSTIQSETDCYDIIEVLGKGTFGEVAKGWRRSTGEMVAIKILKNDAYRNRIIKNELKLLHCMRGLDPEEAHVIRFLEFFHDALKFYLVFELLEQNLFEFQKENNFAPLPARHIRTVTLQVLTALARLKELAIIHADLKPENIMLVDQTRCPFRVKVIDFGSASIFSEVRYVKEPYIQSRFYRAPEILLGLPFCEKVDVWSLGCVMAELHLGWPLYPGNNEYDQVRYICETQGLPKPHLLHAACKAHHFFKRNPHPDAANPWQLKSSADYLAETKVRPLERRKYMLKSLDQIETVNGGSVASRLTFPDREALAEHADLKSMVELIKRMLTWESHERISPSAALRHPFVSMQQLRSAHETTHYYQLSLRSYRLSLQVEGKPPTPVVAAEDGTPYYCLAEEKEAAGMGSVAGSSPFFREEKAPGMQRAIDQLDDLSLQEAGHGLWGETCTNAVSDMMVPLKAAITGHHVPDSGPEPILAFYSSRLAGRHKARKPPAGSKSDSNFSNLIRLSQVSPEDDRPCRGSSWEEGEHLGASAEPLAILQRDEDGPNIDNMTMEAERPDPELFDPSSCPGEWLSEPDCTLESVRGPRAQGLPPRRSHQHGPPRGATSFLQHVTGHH

CC[C@H](C)CCCCC(=O)N[C@@H](CCN)C(=O)N[C@H](C(=O)N[C@@H](CCN)C(=O)N[C@H]1CCNC(=O)[C@H]([C@@H](C)O)NC(=O)[C@H](CCN)NC(=O)[C@H](CCN)NC(=O)[C@H](CC(C)C)NC(=O)[C@@H](Cc2ccccc2)NC(=O)[C@H](CCN)NC1=O)[C@@H](C)O — MIC (Acinetobacter baumannii; usual clinical range): 0.25 to 1 µg/mL (≈ 0.208 to 0.831 µM)
O=[N+]([O-])c1ccc(O)c2ncccc12 — MBEC (Acinetobacter baumannii; biofilm eradication; 1794): 46.9 µM
Oc1ccc(-c2nc(-c3ccc(OC4CCCC4)cc3)no2)cc1 — MIC (Acinetobacter baumannii; ATCC 17961): > 128 µg/mL
Nc1cc(C(F)(F)F)c(-c2nc(N3CCOCC3)nc(N3CCOCC3)n2)cn1 — remaining activity (Homeodomain-interacting protein kinase 4 (HIPK4, Homo sapiens, UniProt Q8NE63); enzyme activity; 10 µM; reference: untreated): 86%
CC(C)(O/N=C(\C(=O)N[C@@H]1C(=O)N2C(C(=O)[O-])=C(C[n+]3ccccc3)CS[C@H]12)c1csc(N)n1)C(=O)O — MIC (Acinetobacter baumannii; clinical isolate RKI-No_584/16): 4 µg/mL (≈ 7.32 µM)
CC[C@H](C)[C@H](NC(=O)CN)C(=O)NCC(=O)N[C@@H](CCCCN)C(=O)N[C@@H](Cc1ccccc1)C(=O)N[C@@H](CC(C)C)C(=O)N[C@@H](CCCCN)C(=O)N[C@@H](CCCCN)C(=O)N[C@@H](C)C(=O)N[C@@H](CCCCN)C(=O)N[C@@H](CCCCN)C(=O)N[C@@H](Cc1ccccc1)C(=O)NCC(=O)N[C@@H](CCCCN)C(=O)N[C@@H](C)C(=O)N[C@@H](Cc1ccccc1)C(=O)N[C@H](C(=O)N[C@@H](CCCCN)C(=O)N[C@H](C(=O)N[C@@H](CC(C)C)C(=O)N[C@@H](CCCCN)C(=O)N[C@@H](CCCCN)C(N)=O)[C@@H](C)CC)C(C)C — MIC (Acinetobacter baumannii): 2 µg/mL (≈ 0.807 µM)
CNC(C)C1CCC(N)C(OC2C(N)CC(N)C(OC3OCC(C)(O)C(NC)C3O)C2O)O1 (stereo not shown) — MIC (Acinetobacter baumannii; clinical isolate RKI-No_70/16): > 8 µg/mL
CCc1c(Cl)c(O)c(Cl)c(O)c1C(=O)O[C@H]1[C@H](O)[C@H](OC)[C@H](OC/C2=C\C=C\C[C@H](O)/C(C)=C/[C@H](CC)[C@@H](O[C@@H]3OC(C)(C)[C@@H](OC(=O)C(C)C)[C@H](O)[C@@H]3O)/C(C)=C/C(C)=C/C[C@@H]([C@@H](C)O)OC2=O)O[C@@H]1C — MIC (Acinetobacter baumannii; ATCC 17961): > 128 µg/mL
CC1(C)S[C@@H]2[C@H](NC(=O)[C@H](N)c3ccccc3)C(=O)N2[C@H]1C(=O)O — MIC (Acinetobacter baumannii; clinical isolate RKI-No_596/16): > 16 µg/mL
FC(F)(F)c1ccc(Oc2ccc(-c3noc(-c4ccc5[nH]ccc5c4)n3)cc2)cc1 — MIC (Acinetobacter baumannii; ATCC 17961): > 128 µg/mL

Repeated from above:
CC[C@H](C)CCCCC(=O)N[C@@H](CCN)C(=O)N[C@H](C(=O)N[C@@H](CCN)C(=O)N[C@H]1CCNC(=O)[C@H]([C@@H](C)O)NC(=O)[C@H](CCN)NC(=O)[C@H](CCN)NC(=O)[C@H](CC(C)C)NC(=O)[C@@H](Cc2ccccc2)NC(=O)[C@H](CCN)NC1=O)[C@@H](C)O — MIC (Acinetobacter baumannii; usual clinical range): 0.25 to 1 µg/mL (≈ 0.208 to 0.831 µM)
